# Experimental data pooled from the literature.
# Every numbered part comes from another study and shows a few of its results, in no order. Positions count from the first letter of the parent shown.

# Series 1 — technique: universal PBM; form: double-stranded DNA, one strand shown; medium: in vitro; tested at: 600 nM; reading: higher = stronger binding
# Target: Sal-like protein 4, full length isoform A (SALL4, Homo sapiens, UniProt Q9UJQ4, residues 1-1053)
# UniProt Q9UJQ4, sequence (whole entry, looked up): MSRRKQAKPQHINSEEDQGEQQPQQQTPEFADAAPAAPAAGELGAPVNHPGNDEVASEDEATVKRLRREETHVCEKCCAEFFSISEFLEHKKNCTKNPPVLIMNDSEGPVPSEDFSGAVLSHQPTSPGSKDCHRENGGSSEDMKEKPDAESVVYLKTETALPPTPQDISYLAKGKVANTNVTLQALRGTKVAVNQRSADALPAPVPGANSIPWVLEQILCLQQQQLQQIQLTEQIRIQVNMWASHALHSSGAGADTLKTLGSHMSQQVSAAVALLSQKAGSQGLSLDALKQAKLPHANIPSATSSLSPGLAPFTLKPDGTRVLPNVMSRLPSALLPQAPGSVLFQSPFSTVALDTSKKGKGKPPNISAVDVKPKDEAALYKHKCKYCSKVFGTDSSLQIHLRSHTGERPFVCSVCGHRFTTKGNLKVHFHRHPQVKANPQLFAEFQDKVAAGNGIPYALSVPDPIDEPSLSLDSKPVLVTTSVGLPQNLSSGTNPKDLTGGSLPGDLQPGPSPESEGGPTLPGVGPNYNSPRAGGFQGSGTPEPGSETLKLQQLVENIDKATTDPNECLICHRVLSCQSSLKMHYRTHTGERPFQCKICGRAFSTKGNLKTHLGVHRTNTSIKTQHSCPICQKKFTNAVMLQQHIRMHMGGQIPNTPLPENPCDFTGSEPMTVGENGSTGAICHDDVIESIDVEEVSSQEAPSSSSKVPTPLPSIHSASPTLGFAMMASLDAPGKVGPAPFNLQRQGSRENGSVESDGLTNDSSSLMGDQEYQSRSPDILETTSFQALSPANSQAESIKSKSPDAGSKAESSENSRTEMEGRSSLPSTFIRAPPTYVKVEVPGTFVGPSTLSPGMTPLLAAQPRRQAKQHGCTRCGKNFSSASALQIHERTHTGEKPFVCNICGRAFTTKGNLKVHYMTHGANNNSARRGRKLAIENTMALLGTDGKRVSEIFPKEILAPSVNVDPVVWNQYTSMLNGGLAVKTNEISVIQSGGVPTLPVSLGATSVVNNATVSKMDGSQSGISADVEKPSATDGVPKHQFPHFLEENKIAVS
# Setting: 8-mer, flanks averaged, mean of replicates
Sequence,E-score
GCTGATGA,0.0719
CGCCTTGA,-0.264
ACGGTGGA,-0.216
ACTGTACA,0.0823
CCATGATC,-0.0489
CCATCGCA,-0.116
AGGTCTCA,-0.131
CACGAAGC,-0.25
TAATAAGA,0.335
ATCCACTG,-0.139
AACTTTAT,0.299
ATTCGCGA,0.0622
ATGCTGAA,0.00626
AGCTTTCA,-0.0181
GGACGACC,-0.402
AGAGCGCT,-0.149
CAGAAATA,0.328

# Series 2 — target: CCNB1, cyclin fold, Cln2 fusion (human); technique: yeast growth competition, sequencing; medium: yeast; setting: weak parent motif; baseline: not given; reading: higher = stronger binding
# Starting sequence: E2F3 docking peptide (human); PPAKRRLELGESG
Substitution,normalised enrichment score
L9F,1.8
P2A,0.492
L9A,0.538
E11A,0.882
P1A,0.638
G13A,-0.162
S12A,0.383
R5A L7A,0.331
R5K L9F,1.03

# Series 3 — technique: RNA Bind-n-Seq; form: RNA; medium: in vitro; tested at: 365 nM; baseline: no-protein control; reading: higher = stronger binding
# Target: RNA binding protein fox-1 homolog 2, RRM domain, GST-SBP tag (RBFOX2, Homo sapiens, UniProt O43251-10, residues 100-194)
# Setting: natural RNA segment, single round, ends assumed
# Construct (chain): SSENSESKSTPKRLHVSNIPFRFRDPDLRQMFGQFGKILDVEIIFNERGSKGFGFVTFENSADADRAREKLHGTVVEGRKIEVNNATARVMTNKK
Sequence,RBNS enrichment (R)
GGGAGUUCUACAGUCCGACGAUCGAGUGAGUGUUCACUCUUUUGUCUGUGGAGUCUGCUGUGUGGCAGGAUCCCAGCCCUAGAGCUGCAGGGCUGCCCUGUGGGACAGCGCAGCCUAAGCUGAUUUGGAUCUGUGGAAUUCUCGGGUGCCAA,0.391
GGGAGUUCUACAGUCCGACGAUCGGCACCCGCUGGGCGCGGGCAGCAGGGAAGAGGGAGCAAGGCAUUGUCCACAGACUGCUGGGGUCACUUCUUUGCCCACGGGCUCCCUGCUCCCCCAGUUUUUUUUCUCUUGGAAUUCUCGGGUGCCAA,0.372
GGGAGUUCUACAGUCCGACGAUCUCACUUUAAAAUCUAUCGAAGCUCUUUUAACGUAAUGGGUGACAAUGUCACAUGACAGAUGCCAUGAAGAAGUCAACCGAUAUAGCUUGGAUCUGUGAACCCUGUACUGCUGGAAUUCUCGGGUGCCAA,0.415
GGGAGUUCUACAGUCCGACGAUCCUACACUUCUGAAGUAUGAGCAAAGCUUAAGGUGAGUCUUGUGAUAUCUCUUUCACUUCCUCCCCAGCUGCCAAAUGGGGAUAAAUAAUCUUACCUACCUCCUGGGGGGGUGGAAUUCUCGGGUGCCAA,0.334
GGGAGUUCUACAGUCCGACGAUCAAAGGGAAUUGCUGUCCUUGCCCUGUGGUAUGCUGCCACCUCUUUGGGAAGCAGGCCUUGCCCCUGUCCCACCACUCAUUCUCAGCUUUGAAUGGGAGGCCUUUCUAUAGUGGAAUUCUCGGGUGCCAA,0.417
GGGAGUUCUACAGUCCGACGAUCAAAGUAUUAUCAAGUGUCAAGAUCAGCAAGUGUCCUUAAGUCAAACAGGUUUUUUUUGUUGUUGUUUUUGCUUUGUUUCCUUUUUUAGAAAGUUCUAGAAAAUAGGAAAAUGGAAUUCUCGGGUGCCAA,1.07
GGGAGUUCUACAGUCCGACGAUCUGAUUCCCCUCCUUUGACUUCUGCCUAGAAGCUUGGGUGCAAAGGGUUUCUUGCAUCUGAUCUUUCUACCACAACCACACCUGUCGUCCACUCUUCUGACUUGGUUUCUCUGGAAUUCUCGGGUGCCAA,0.722
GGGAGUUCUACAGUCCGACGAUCCCCACCCCCUUCAGUGCCCACCAACAUCCCAUUGCCCUGGUUAUAUUCUCACGGGCAGUAGCUGUGGUGAGGUGGGUUUUCUUCCCAUCACUGGAGCACCAGGCACGAACUGGAAUUCUCGGGUGCCAA,0.455
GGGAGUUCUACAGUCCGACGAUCUUCUUGGGUGGACUCAACUGUAACCACAGUUUAUUAGUUGCUUAGAAGUGGAUUUUUAAAAAACAGUUAAAUGUGUGUGCAUAACACACAAGUAAUGACACACUACUAUUUGGAAUUCUCGGGUGCCAA,0.307
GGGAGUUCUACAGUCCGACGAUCACUUGAUACUUAUGUAGAAUCCAUCGUGGGCUGAUGCAAGCCCUUUAUUUAGGCUUAGUGUUGUGGGCACCAAUGUCGAGCAUCGUUGUGACUUGUGCUGUAUGAUUCUCUGGAAUUCUCGGGUGCCAA,2.2
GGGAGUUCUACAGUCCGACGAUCAUCAGAGAAUUUGUUCACCACCGUCUCCAGGCAGCAACGCCAAGGGCAAGUCUGAUCUCAGCACCCACGAGCCACAUCCUGGGCCAAGCAACAGUAACCCUUGCCAAGCAUGGAAUUCUCGGGUGCCAA,0.542
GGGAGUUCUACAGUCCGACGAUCUCUGUUUUGUUGUUAAUGCUCAGACAGUAUUGUCUGAGAAAUUACACCUGAGUGCAUUUAAGUAUUUAGAGUAUAAGUUUCAUGCAUAGAAAGUUAACCCUAUUAAUUUCUGGAAUUCUCGGGUGCCAA,0.469

# Series 4 — technique: RNA Bind-n-Seq; form: RNA; medium: in vitro; tested at: not given; setting: RNA with constant flanks, ends assumed; baseline: input RNA pool; reading: higher = stronger binding
# Target: RING finger protein unkempt homolog, zinc fingers 1-6, GST-SBP tag (UNK, Homo sapiens, UniProt Q9C0B0, residues 30-357)
# UniProt Q9C0B0, sequence (30-357, looked up): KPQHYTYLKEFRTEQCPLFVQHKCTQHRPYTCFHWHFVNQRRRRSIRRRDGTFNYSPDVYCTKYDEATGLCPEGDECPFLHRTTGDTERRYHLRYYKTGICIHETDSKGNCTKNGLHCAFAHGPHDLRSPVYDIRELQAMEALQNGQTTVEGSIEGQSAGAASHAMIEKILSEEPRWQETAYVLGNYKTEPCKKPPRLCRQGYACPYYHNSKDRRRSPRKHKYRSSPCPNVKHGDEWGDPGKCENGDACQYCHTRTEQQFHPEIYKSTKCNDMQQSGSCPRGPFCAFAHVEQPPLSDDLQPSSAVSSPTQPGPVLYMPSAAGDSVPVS
Sequence,bound/input enrichment [ratio]
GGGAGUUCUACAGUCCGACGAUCCCUGGUGGGCAUGUGGGACGUUUCUGCAUUUGGACUGAAAGUGCUUUCCGGAAGUCCGAUGAAUUGUACGGCACUUGGCGUAAAGCCGCUUCCCUCAAGAGUAACUACAAUCUUCCCAUGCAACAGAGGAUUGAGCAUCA,0.101
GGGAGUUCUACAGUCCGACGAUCCUCAAAGAAUUGCUUUCUUGGAAAGUUUUGAGCACAGAAGACUAUACAACCUGUUUUUCCCGCAGAAAUUUUCUAAAUGAAGCAGUGGACUAUGUUAUUCGCCACUUGAUUCAAGAAAAUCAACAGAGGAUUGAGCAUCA,0.111
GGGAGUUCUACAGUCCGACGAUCCACGCAGCAGUUGUGGUCAAUAUUGUGGUAGUCGCUAAUUGUACUGGUUUAAGUGUGCAUCCGCCGUGUCUCCCCAGCUAGAUUGUAAGCUCCUGGAGACAGGGACCACCUCCACCAAAACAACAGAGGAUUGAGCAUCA,0.175
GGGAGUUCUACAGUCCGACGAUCCAGCAUGUCAUAGAAACCUUGAUUGGCAAAAAGCAACAGAUAUCUCUUGCAACACAAAUGGUCCGAAUGAUUUUGAAGAUUGAUGACAUUCGUAAGCCUGGAGAAUCUGAAGAAUGAAGACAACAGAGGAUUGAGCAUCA,0.286
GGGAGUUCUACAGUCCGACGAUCUUGAAAUCUCUACGAGAACUGAAUGUCAGAAGAAAUUACCUUAAAGUUUUACCACAAGAACCCGCCGAUCUUUCCUUGGUAAAGUUUGACUUUUCCUGCAACAAAGUGCUCGUGAUUCCACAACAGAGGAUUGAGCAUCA,0.194
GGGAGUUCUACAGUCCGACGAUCAAACUGACAGAGCUCCUCCGAUACUACAUGCUCAACAUAGAGGCUGCAAAGGAUCUCUUGUACCGACGUACCAAAGCCCUAAUUGACUAUGAGAAUUCAAACAAAGCUUUGGACAAGGCCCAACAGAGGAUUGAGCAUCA,0.0854
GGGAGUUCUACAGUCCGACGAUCUUAGCAUGCUGUAUGCCUCCCUCGUACAGUACAUCAGUUUACACUCUGAAGGCGUUCCCGAACCGUGUUGCCUAGUUUAAGGAAAGGGUAUUACAGUGUUCUUCACAACUUAAGAAUUUUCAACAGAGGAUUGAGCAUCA,0.408
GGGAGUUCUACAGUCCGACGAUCAAAGAAGAGAAAGAAGAUGAAAUUUCAUUAGAAGAUCUAAUUGAGAGAGAGCGUUCUGCCCCCGGUCCAAAUGUUACCAAAAUCACUCUAGAAUCUUUUCUUGCCUGGAAGAAAAGGAAACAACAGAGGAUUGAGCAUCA,0.444
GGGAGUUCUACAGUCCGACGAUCCCUGGCAACCGAGCCCCCGAUCCCACAGAGAGUCGAAGUCUUCAUAUUCAGCACCCAGGGUACCGACCGGUAGCCCUGCUGCCCUCCACGUGCAACACAUCAUACAUCACCCUCCUAGGUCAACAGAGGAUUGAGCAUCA,0.244
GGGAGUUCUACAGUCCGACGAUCUUCUCCAAUGUUACGCUCGCUUGCCUAGCUUUACGAAUAUUGCUUUGUUUUCUGUUUAUGCACCGCCUUGAUUUGUUUGACUCCCCUCCCCCCAUUUACAUGCAUGCAAUCAGACAGGCCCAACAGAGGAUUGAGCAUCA,3.58
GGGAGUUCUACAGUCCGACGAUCUCAAGGGCACGAGCAUCGGCCAUGCCUUUCUUGGACAUCCAGAAAAGGUUCGGCCUUAACACCGAUCGAUGGUUGACAAUCCAGAGUGGUGAACAGCCCUACAAGAUGGCUGGUCGAUGCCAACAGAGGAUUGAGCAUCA,0.102

# Series 5 — technique: protein-binding microarray; form: double-stranded DNA, one strand shown; medium: in vitro; tested at: 940 nM top; setting: 60-bp whole probe; added: salmon DNA 0.4 mg/ml; baseline: random background probes; reading: higher = stronger binding; constant ends, left off below: GCCTAGCAC … GTCTTGATTCGCTTGACGCTGCTG
# Target: Interferon regulatory factor 5, full length, phosphomimetic (IRF5, Homo sapiens, UniProt Q13568-2, residues 1-514, S451D/S453D/S456D/S462D)
Sequence,fitted relative affinity
CTTGGGCTCTTCTCTGAAGACGTGCTA,-0.5 z-score
CTCTGGGGGGTGGGATGAAGGTGCTAG,4.22 z-score
GACGGTTTCGGTTCGGGGACGTGCTAG,12.6 z-score
TTGGGACTGGGTTTCGGTTAGTGCTAG,6.89 z-score
ATAGAACTGAGTCTCGATTAGTGCTAG,2.54 z-score
GACGGTTTCGACACAGGGGACGTGCTA,6.73 z-score
GACGATTTCGGATATCGAGACGTGCTA,0.622 z-score
TTAGGTCTCCTTAGCCTTTAGTGCTAG,-0.203 z-score
GACGGACTGGGTATCGGGATGTGCTAG,0.987 z-score
AGCACTCCAGAGGCAGAGGCGTGCTAG,-0.47 z-score
TTAGATTTCAGTTTCGATTAGTGCTAG,8.98 z-score
TCAAGTTCAGTTCTCTAACTGTGCTAG,-0.438 z-score
TTAGAATTCAGTATCGATTAGTGCTAG,6.38 z-score
AATATGTTCCCTATATAAGGGTGCTAG,0.224 z-score
TTAAGTTTCGGTTTCGGTTAGTGCTAG,16.5 z-score
GACGATTCCAGTTTCGTGACGTGCTAG,2.13 z-score
TTAGGTTTCGGGTTTCGCTTAGTGCTA,9.99 z-score
TCACATCTCTGCTCCTTACTGTGCTAG,1.23 z-score
TTAGAACTGGGGTTTAGATTAGTGCTA,0.176 z-score
TTAGGTCTCGGTTTCGGTAAGTGCTAG,8.85 z-score
TCAACTTTCCAATTGTCACTGTGCTAG,0.62 z-score
TTAGGATTCGGTCTCGGTTAGTGCTAG,3.74 z-score
GACGGTATCGAATATCGGGACGTGCTA,2.77 z-score
GTGAGTCCCACATCTCTGTCCGTGCTA,0.584 z-score
TTAGATATCAGTTTCGATGAGTGCTAG,6.61 z-score
